# Literature values as cited in several papers.
# Lines come from different studies, so protocols differ.
# UniProt Q15418, sequence (whole entry, looked up): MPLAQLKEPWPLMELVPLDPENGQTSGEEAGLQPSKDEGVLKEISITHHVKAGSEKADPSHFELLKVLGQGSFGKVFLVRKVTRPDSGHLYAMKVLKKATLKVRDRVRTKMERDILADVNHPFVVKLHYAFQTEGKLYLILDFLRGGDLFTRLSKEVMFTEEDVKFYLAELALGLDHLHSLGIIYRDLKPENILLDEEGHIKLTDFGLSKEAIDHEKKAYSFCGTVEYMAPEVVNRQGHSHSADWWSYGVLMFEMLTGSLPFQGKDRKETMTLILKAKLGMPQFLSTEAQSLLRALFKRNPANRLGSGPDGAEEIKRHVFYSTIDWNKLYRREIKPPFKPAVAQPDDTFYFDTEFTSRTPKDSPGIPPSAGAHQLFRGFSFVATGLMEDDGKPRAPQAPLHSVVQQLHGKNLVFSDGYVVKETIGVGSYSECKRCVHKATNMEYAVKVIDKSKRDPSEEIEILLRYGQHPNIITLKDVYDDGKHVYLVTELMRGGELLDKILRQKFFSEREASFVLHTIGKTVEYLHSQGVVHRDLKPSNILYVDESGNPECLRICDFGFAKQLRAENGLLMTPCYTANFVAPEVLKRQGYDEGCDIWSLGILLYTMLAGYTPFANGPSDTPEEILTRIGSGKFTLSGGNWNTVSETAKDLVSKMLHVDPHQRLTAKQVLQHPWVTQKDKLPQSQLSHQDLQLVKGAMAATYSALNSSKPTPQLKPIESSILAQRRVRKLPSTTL
SMILES,target or system,assay,test system,setting,how to read,endpoint,value
Nc1cc(C(F)(F)F)c(-c2nc(N3CCOCC3)nc(N3CCOCC3)n2)cn1,"Ribosomal protein S6 kinase alpha-1, N-terminal kinase domain (RPS6KA1, Homo sapiens, UniProt Q15418)",enzyme activity,,10 µM,reference: untreated,remaining activity,74%
CO[C@]1(C(=O)N[C@@H](C)c2ccc(-n3cc(F)cn3)nc2)CC[C@H](c2nc(C)cc(Nc3cc(C)[nH]n3)n2)CC1,,,healthy human,"dose not given, with: itraconazole",reference: compound alone,AUC(0-inf) increase,251%
N#CCNC(=O)c1ccc(-c2ccnc(Nc3ccc(N4CCOCC4)cc3)n2)cc1,,,human,"dose not given, with: single-dose rifampicin",,AUC(0-inf) increase,57%
C[C@@H](Oc1ccc(S(C)(=O)=O)cc1C(=O)N1C[C@@H]2C[C@]2(c2cc(C(F)(F)F)on2)C1)C(F)(F)F,,,human,"25 mg single, with: itraconazole",reference: with over without itraconazole,AUC(0-inf) ratio,5.97
CN1CCC(COc2cnc(-c3cccc(Cn4nc(-c5cccc(C#N)c5)ccc4=O)c3)nc2)CC1,,,human,"dose not given, with: meal, high-fat, high-calorie",reference: fasted state,AUC(0-inf) increase,1.6 fold
CNCc1cc(-c2ccccc2F)n(S(=O)(=O)c2cccnc2)c1,,,human,"30 mg, multiple dose",,AUC(0-inf),327 ng·h/mL
Cc1nsc(-c2nnc3n2CCN(C(=O)c2ccc(F)cc2)[C@@H]3C)n1,,,human,"oral, 20 mg, day 1, fed",,AUC(0-inf),1020 ng·h/mL
C[C@H]1CO[C@@H]2Cn3cc(C(=O)NCc4ccc(F)cc4F)c(=O)c(O)c3C(=O)N12,,,human,"oral, two 5 mg tablets, first study",reference: fed over fasted,AUC(0-inf) ratio,1.15
CCOc1c([C@H](C)n2nc(C)c3c(N)ncnc32)cc(Cl)c(F)c1[C@@H]1CNC(=O)C1,,,human,"oral, 20 mg once daily, with: rifampin",reference: compound alone,AUC(0-inf) decrease,77%
Cn1c(Cn2ccc(C(F)(F)F)c(Oc3cc(Cl)cc(C#N)c3)c2=O)n[nH]c1=O,,,human,"dose not given, with: high-fat meal",reference: fasted,AUC(0-inf) increase,16%
Cc1cc(C)c(CNC(=O)c2cc(Cl)c3c(c2C)O[C@@](C)([C@H]2CC[C@H](N(C)C)CC2)O3)c(=O)[nH]1,,,human,50 mg,,AUC(0-inf),1900 ng·h/mL

# A few entries again:
SMILES,target or system,assay,test system,setting,how to read,endpoint,value
Cn1c(Cn2ccc(C(F)(F)F)c(Oc3cc(Cl)cc(C#N)c3)c2=O)n[nH]c1=O,,,human,"dose not given, with: high-fat meal",reference: fasted,AUC(0-inf) increase,16%
